Published values of several laboratories.
Parts stem from different laboratories: compare values within a part only. Several values in a cell are separate wells, animals, samples, runs or records.
Chain of UniProt Q9HCP0 (whole entry, looked up): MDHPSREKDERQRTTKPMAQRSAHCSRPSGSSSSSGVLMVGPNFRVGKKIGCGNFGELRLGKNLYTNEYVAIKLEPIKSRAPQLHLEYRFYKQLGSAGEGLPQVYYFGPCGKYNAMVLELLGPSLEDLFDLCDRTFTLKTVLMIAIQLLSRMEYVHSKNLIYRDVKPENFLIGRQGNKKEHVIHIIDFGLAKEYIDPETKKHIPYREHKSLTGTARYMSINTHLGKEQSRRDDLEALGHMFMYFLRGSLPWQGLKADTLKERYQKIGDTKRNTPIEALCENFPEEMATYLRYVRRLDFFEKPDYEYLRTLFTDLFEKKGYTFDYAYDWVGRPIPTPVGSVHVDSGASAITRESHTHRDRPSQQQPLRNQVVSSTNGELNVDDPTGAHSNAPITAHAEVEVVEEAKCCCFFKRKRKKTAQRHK
Chain of UniProt P21709 (whole entry, looked up): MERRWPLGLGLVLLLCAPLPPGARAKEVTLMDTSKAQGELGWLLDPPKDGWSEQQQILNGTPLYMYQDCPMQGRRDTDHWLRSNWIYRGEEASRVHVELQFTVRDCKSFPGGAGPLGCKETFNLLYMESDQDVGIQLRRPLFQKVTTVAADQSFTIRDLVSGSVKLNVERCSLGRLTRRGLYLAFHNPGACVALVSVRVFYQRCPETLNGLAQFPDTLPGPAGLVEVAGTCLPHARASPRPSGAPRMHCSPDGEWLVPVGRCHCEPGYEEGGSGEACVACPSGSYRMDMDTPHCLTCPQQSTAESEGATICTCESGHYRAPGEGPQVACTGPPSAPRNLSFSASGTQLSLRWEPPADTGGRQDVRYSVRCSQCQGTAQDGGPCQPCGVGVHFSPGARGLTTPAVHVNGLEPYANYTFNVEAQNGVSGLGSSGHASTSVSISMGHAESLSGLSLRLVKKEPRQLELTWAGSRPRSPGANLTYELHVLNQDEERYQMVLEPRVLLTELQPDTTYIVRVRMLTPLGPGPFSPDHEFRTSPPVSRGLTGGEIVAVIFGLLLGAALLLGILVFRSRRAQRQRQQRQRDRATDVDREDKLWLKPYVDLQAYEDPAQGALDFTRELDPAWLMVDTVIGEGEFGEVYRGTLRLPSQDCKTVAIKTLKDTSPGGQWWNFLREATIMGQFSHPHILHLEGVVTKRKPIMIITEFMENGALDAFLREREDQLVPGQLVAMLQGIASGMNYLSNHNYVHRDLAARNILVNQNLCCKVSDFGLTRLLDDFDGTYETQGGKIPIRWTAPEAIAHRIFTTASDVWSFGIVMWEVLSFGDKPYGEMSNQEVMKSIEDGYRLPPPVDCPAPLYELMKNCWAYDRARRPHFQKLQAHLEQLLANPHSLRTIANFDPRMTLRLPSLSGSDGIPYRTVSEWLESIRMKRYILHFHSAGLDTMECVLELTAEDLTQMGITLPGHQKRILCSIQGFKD
Chain of UniProt Q9H1R3 (whole entry, looked up): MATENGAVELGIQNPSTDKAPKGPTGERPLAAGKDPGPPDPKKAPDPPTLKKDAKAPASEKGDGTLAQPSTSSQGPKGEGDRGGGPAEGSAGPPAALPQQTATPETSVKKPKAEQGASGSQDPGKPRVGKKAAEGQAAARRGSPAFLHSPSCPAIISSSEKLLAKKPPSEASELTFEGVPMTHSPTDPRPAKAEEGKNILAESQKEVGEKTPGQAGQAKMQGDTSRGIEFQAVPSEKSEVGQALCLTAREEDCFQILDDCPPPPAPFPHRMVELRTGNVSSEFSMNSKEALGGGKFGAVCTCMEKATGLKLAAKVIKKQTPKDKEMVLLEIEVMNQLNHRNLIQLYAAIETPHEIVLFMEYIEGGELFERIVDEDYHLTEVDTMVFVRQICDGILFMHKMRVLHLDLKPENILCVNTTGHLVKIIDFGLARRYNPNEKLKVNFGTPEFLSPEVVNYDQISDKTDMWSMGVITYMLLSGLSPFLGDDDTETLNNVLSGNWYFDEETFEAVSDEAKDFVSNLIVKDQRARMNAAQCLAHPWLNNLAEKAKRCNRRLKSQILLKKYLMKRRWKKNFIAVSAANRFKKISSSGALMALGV
Chain of UniProt Q8IW41 (whole entry, looked up): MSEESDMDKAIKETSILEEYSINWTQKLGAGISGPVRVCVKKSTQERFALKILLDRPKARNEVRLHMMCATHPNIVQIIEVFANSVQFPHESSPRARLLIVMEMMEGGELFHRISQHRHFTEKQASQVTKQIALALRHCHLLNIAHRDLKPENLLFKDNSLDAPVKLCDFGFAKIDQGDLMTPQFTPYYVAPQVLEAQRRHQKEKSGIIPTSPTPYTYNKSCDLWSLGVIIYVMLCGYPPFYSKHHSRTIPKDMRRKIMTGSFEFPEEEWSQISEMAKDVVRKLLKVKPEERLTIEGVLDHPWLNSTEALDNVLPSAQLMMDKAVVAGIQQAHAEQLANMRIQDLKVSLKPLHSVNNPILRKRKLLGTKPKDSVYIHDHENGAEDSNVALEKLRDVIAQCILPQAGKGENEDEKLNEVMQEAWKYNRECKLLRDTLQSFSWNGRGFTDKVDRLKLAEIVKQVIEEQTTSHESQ
Chain of UniProt Q9P289 (whole entry, looked up): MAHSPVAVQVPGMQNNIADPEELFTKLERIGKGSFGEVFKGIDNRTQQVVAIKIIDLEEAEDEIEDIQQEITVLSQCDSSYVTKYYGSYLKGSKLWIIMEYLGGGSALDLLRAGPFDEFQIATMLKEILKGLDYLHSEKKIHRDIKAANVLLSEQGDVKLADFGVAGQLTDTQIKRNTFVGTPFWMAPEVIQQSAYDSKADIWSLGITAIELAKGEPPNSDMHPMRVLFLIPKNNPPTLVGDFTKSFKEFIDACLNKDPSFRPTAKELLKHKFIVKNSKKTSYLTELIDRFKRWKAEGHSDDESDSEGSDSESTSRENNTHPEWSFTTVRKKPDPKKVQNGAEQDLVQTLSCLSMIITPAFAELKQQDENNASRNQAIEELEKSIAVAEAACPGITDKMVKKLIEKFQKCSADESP
Chain of UniProt Q9BUB5 (whole entry, looked up): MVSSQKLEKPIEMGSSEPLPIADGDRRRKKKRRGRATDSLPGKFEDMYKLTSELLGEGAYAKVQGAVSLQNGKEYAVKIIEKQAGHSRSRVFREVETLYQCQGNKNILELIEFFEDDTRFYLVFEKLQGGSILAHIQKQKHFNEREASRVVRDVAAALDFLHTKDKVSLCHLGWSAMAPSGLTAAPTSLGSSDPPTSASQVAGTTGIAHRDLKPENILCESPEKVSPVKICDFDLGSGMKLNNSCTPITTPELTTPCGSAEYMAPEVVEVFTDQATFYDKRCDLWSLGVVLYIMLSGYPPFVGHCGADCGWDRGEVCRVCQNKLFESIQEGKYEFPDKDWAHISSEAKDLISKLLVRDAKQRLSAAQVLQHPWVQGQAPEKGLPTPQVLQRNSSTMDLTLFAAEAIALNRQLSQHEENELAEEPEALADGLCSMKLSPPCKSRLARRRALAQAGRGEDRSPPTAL
Chain of UniProt Q13555 (whole entry, looked up): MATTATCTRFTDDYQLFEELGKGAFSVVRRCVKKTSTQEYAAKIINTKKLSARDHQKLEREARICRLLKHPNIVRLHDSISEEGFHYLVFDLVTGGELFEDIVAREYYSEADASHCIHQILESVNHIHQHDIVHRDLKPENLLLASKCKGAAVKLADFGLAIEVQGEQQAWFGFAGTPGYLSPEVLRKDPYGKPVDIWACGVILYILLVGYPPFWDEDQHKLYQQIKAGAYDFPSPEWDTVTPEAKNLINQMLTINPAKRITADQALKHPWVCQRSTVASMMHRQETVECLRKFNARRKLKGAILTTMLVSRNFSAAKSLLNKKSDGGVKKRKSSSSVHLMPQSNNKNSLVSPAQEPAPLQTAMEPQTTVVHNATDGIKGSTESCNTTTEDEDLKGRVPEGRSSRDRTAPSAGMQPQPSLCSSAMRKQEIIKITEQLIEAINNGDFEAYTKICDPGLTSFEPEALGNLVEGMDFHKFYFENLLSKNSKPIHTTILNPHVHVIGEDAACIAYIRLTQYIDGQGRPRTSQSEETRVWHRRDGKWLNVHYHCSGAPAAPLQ
Chain of UniProt P11229 (whole entry, looked up): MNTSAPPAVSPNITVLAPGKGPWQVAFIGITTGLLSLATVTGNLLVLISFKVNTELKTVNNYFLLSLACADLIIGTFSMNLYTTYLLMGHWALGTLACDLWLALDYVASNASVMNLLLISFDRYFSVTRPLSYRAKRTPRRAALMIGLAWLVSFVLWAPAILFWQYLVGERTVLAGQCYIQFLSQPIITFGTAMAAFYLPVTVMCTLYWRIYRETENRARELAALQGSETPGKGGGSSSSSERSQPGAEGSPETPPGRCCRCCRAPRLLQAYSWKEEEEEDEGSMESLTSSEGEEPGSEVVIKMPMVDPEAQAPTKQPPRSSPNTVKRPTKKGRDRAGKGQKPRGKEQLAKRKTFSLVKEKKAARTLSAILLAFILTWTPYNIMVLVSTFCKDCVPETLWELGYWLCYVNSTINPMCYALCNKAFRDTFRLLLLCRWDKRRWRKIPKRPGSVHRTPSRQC

Block 1
Organism: Sarcocystis neurona
Read-out: parasite growth
Concentration: 10 µM
Time: 96 h
Notes: first screen
Measurement: inhibition
SMILES = c1cncc([C@@H]2CCCN2)c1; result = 29.3%
SMILES = FC(F)(F)c1cccc(N2CCNCC2)c1; result = 14.3%
SMILES = NC1=NC(=O)C(c2ccccc2)O1 (stereo not shown); result = -1.2%
SMILES = CN1C(=O)COc2c(C(=O)NC3CN4CCC3CC4)cc(Cl)cc21 (stereo not shown); result = -5.3%
SMILES = CN1CCN(C(=O)O[C@H]2c3nccnc3C(=O)N2c2ccc(Cl)cn2)CC1; result = -13.2%
SMILES = C[C@]12CC[C@H](O)CC1=CC[C@@H]1[C@@H]2CC[C@@]2(C)[C@H]1CC[C@]2(C)O; result = -1.7%

Block 2
Target: Calcium/calmodulin-dependent protein kinase type II subunit alpha (CAMK2A, Homo sapiens, UniProt Q9UQM7)
Chain of UniProt Q9UQM7 (whole entry, looked up): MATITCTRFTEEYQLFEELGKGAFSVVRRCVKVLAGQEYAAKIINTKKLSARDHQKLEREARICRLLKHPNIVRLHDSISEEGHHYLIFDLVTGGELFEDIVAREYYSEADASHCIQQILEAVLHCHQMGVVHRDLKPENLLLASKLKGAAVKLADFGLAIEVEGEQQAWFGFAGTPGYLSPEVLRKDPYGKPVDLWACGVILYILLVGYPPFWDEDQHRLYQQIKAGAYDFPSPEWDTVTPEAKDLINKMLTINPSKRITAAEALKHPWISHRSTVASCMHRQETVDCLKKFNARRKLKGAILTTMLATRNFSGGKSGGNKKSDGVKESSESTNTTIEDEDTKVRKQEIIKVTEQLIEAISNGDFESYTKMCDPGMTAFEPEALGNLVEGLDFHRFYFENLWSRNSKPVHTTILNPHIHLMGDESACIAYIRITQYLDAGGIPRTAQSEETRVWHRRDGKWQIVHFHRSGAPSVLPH
Read-out: enzyme activity
Mode: inhibitor
Concentration: 10 µM
Measurement: inhibition
Structure (SMILES) = CC(C)=CCC/C(C)=C/CC/C(C)=C/CC[C@]1(C)CCc2cc(O)c(C)c(C)c2O1; result = -1%
Structure (SMILES) = COc1cc2c(cc1OC)[C@@H]1C(=O)c3ccc4c(c3O[C@@H]1CO2)C=CC(C)(C)O4; result = -18%
Structure (SMILES) = CNc1ccc2oc(C[C@H]3O[C@@]4(CC[C@H]3C)O[C@H]([C@H](C)C(=O)c3ccc[nH]3)[C@H](C)C[C@H]4C)nc2c1C(=O)O; result = -33%
Structure (SMILES) = Oc1cc(O)cc(/C=C/c2c(O)cccc2O)c1; result = 15%
Structure (SMILES) = C[C@]12CC[C@H]3[C@@H](CC[C@@]45O[C@@H]4C(O)=C(C#N)C[C@]35C)[C@@H]1CC[C@@H]2O; result = 9%
Structure (SMILES) = Cc1c2ccncc2c(C)c2c1[nH]c1ccccc12; result = -9%
Structure (SMILES) = CC[C@@H](C(N)=O)N1CCCC1=O; result = -11%

Block 3
SMILES: O=C1NC(=O)c2c1c1c3ccccc3n3c1c1c2c2ccccc2n1[C@H]1CC[C@@H]3O1
Read-out: enzyme activity
Mode: inhibitor
Concentration: 0.5 µM
Reference: control
Measurement: remaining activity
target = PBK (Homo sapiens, UniProt Q96KB5); result = 39.9%
target = MKNK1 (Homo sapiens, UniProt Q9BUB5); result = 48.6%
target = CAMK2G (Homo sapiens, UniProt Q13555); result = 8.36%
target = MYLK2 (Homo sapiens, UniProt Q9H1R3); result = 7.76%
target = DAPK3 (Homo sapiens, UniProt O43293); result = 24.6%
target = IRAK1 (Homo sapiens, UniProt P51617); result = 37.5%
target = MAPK8 (Homo sapiens, UniProt P45983); result = 98.5%
target = MAP3K11 (Homo sapiens, UniProt Q16584); result = 1.37%
target = ERBB4 (Homo sapiens, UniProt Q15303); result = 72.5%
target = NEK7 (Homo sapiens, UniProt Q8TDX7); result = 99.1%
target = NUAK2 (Homo sapiens, UniProt Q9H093); result = 52%
target = EPHA1 (Homo sapiens, UniProt P21709); result = 90.1%
target = CSNK1G1 (Homo sapiens, UniProt Q9HCP0); result = 96.1%
target = STK26 (Homo sapiens, UniProt Q9P289); result = 20.5%
target = Protein kinase C beta type, isoform beta-II (PRKCB, Homo sapiens, UniProt P05771); result = 6.42%
target = TYK2 (Homo sapiens, UniProt P29597); result = 4.32%
target = STK24 (Homo sapiens, UniProt Q9Y6E0); result = 14.3%
target = EPHA8 (Homo sapiens, UniProt P29322); result = 89.9%
target = PRKD2 (Homo sapiens, UniProt Q9BZL6); result = 2.02%
target = MAPKAPK5 (Homo sapiens, UniProt Q8IW41); result = 80.4%

Block 4
Compound: CC(C)S(=O)(=O)c1cc2c(Nc3ccc4sc(C5CCCC5)nc4c3)ccnc2cc1OCCO
Technique: CCK-8
Measurement: survival
cell line = L929 RIPK3-/- reexpressing RIPK3 K51A; setting = 50 µM; result = 13.2% and 12.5% and 10.8%
cell line = L929 RIPK3-/- reexpressing RIPK3 K51A/R69H; setting = 25 µM, with: zVAD; result = 62.4% and 56% and 56.9% and 64.4% and 62.6%
cell line = L929 RIPK3-/- reexpressing RIPK3 K51A; setting = 25 µM; result = 50.2% and 46.3% and 48.9% and 37.9%
cell line = L929 RIPK3-/- reexpressing RIPK3 K51A; setting = 6.25 µM, with: zVAD; result = 73.6% and 78.4% and 84.2% and 77.1% and 85.6%
cell line = L929 RIPK3-/- reexpressing RIPK3 K51A; setting = 12.5 µM; result = 60.3% and 73.1% and 63.4% and 70.1% and 69.6%
cell line = L929 RIPK3-/- reexpressing RIPK3 K51A/R69H; setting = 6.25 µM, with: zVAD; result = 81.4% and 95.7% and 89.4% and 96.5%

Other studies, line by line
Compound = Cn1cncc1[C@](O)(COc1ccc(C#N)cc1-c1ccc(OC(F)(F)F)cc1)c1ccc(C#N)cc1; target = HRH1 (Homo sapiens, UniProt P35367); assay = binding, radioligand binding; measurement = Ki; result = > 10 µM
Compound = COc1cccc(CNC(=O)c2nc3scc(COCc4ccc(C(=O)O)cc4)c3c(=O)[nH]2)c1; target = CHRM1 (Homo sapiens, UniProt P11229); assay = binding, radioligand binding; measurement = Ki; result = > 10 µM
Compound = N#CC1(c2ccccn2)CCN(Cc2cc(C(=O)O)c(=O)n3ccccc23)CC1; target = HTR5A (Homo sapiens, UniProt P47898); assay = cell-free assay; setting = 10 µM; measurement = inhibition; result = -20%
Compound = O=C1CCc2cc(Nc3cc(OC4CCOCC4)c([N+](=O)[O-])cc3Cl)ccc2N1; target = CDPK1 (Plasmodium falciparum, UniProt P62344); assay = cell-free assay, competition with immobilised ligand; setting = 1 µM; measurement = remaining binding; result = 100%

Excerpt of the above (block 4):
cell line = L929 RIPK3-/- reexpressing RIPK3 K51A/R69H; setting = 25 µM, with: zVAD; result = 62.4% and 56% and 56.9% and 64.4% and 62.6%
cell line = L929 RIPK3-/- reexpressing RIPK3 K51A; setting = 25 µM; result = 50.2% and 46.3% and 48.9% and 37.9%
cell line = L929 RIPK3-/- reexpressing RIPK3 K51A; setting = 6.25 µM, with: zVAD; result = 73.6% and 78.4% and 84.2% and 77.1% and 85.6%
cell line = L929 RIPK3-/- reexpressing RIPK3 K51A; setting = 12.5 µM; result = 60.3% and 73.1% and 63.4% and 70.1% and 69.6%
